Experimental data of several laboratories.
Numbered parts are unrelated; each lists some results of a single study. Changes are numbered by the printed parent chain.

Sample 1 — technique: protein-binding microarray; molecule type: double-stranded DNA, one strand shown; sample: in vitro; concentration: not given; reading: higher = stronger binding
Target: Cyclic AMP-dependent transcription factor ATF-1 (ATF1, Homo sapiens, UniProt P18846, residues 1-271, full length assumed)
Notes: k-mer, scored over probes, only values ≥0.25
Construct (chain): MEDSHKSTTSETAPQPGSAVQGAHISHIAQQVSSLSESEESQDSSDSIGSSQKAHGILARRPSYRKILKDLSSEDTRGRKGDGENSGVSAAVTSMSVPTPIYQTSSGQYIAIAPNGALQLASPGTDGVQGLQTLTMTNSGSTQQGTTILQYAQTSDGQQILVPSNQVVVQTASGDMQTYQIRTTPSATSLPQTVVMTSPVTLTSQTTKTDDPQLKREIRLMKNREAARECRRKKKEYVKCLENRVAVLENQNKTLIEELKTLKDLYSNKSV
`GCACGTA` gave an E-score of 0.302.
For `ACGTATA`, the E-score was 0.393.
With `ATCACAT` the E-score was 0.303.
`ACGACGT` has an E-score of 0.383.
`ACGCCGT` has an E-score of 0.264.
With `ACGTACT` the E-score was 0.338.
The E-score of `GACGTAC` is reported as 0.379.
The E-score of `TGCGTAA` is reported as 0.297.
For `GTCATGA`, the E-score was 0.356.
`ATTCGTC` gave an E-score of 0.293.
`ACATCAT` gave an E-score of 0.29.
`GTCATAA` has an E-score of 0.354.
With `ACGAAAG` the E-score was 0.267.
`ACACCAA` gave an E-score of 0.289.
`AATGACG` has an E-score of 0.464.

Sample 2 — target: JUND, bZIP domain (human); technique: DHFR protein complementation; sample: yeast; baseline: wild-type JUN-FOS pair; reading: higher = stronger binding
Notes: single substitutions, most at no-binding floor
Starting sequence: JUN, bZIP domain (human); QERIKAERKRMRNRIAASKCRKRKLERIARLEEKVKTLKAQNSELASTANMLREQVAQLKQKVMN
For `L59P`, the binding fitness was -1.51 natural log.
`L31P` has a binding fitness of -1.44 natural log.
`Q55P` gave a binding fitness of -1.42 natural log.
`N42K` gave a binding fitness of -1.21 natural log.
`L45A` has a binding fitness of -1.36 natural log.
`L52N` gave a binding fitness of -1.49 natural log.
`K39P` has a binding fitness of -1.42 natural log.
`L59R` has a binding fitness of -1.34 natural log.
For `Q55G`, the binding fitness was -1.38 natural log.
For `T48F`, the binding fitness was -1.22 natural log.
With `Q41F` the binding fitness was -1.45 natural log.

Sample 3 — technique: RNA Bind-n-Seq; molecule type: RNA; sample: in vitro; concentration: 365 nM; baseline: no-protein control; reading: higher = stronger binding
Target: RNA binding protein fox-1 homolog 2, RRM domain, GST-SBP tag (RBFOX2, Homo sapiens, UniProt O43251-10, residues 100-194)
Notes: natural RNA segment, single round, ends assumed
Shared flanks, not repeated: GGGAGUUCUACAGUCCGACGAUC … UGGAAUUCUCGGGUGCCAA
Construct (chain): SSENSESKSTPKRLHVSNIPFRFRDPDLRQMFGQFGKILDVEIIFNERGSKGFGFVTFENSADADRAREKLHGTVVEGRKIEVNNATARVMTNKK
For `AAUACCUUCAGGUCUGCCAUGCCAUCAGCCAGCCUGGUUCCUUCUGAGGGCAACCUGGGUCUGGUGGUAUUUCUGGUGGUGCAGAUGAGGGGAGGGUGGGGCCCUCGCUG`, “RBNS enrichment (R)” read 0.479.
`UUCCUAAAAGUGAGCCACUAUCAGAUUUGCACAUCAGGAGAAAAGAAAUAGGGUUACGUCCAUUAGGAAAAUCCCAGUUUGCAGGAGUGCAAUCACAUCAAAAAAACAAC` — result for “RBNS enrichment (R)”: 0.489.
For `AGAGGUCAGCCGUGUCUGCCCUGGCUCUGUCUCCUCUGUGACAGGGCAGAGCAUUUCUGGUCAGUUUCUCCAUGGUGCCUCCCACCCCUUUGUAAAGUGGAUGGACAUGA`, “RBNS enrichment (R)” read 0.307.
For `AAGCUACAUUGGCAGCAGCGAAUGUUGCAGCUUCUUGUGCAAGUACACCCUUCAUGGAAGUGUUGACAUGUGCCAAAGGGUACUCUGCACAUCACUUCCUUCCUGAAAGC`, “RBNS enrichment (R)” read 0.238.
For `AAGUCACUGAUGCCAUUUCAUACAGGUGCUAGCUGUCUUUCUGUGGUUUGAAGGAAAGUUAUUGUCACGUGGUUUGUUUUCCUCAAAAUGAAGGGAUAGGACAAAAGAGA`, “RBNS enrichment (R)” read 0.404.
For `GGUGGUUUUUCUUGUAAACUUGUGGACUUUUGAAACCUGUUGACUAAACAGUAAUUAAUUUAUAUUUGUGAAAAAUGCCACUGUCCUGGUGAUUUCUGAUGUAAAUAAUG`, “RBNS enrichment (R)” read 0.71.
`AUCCAGGUUCCAGAGAGAACAUUAGAUCUUAGCUCUUGACAAAACGGAUGGCAGAUACUGGCCUUUGAAACUCUGUUGAUUCAUCUCUUCUAAUCGGUCCCCAAGGAGAA`: “RBNS enrichment (R)” 0.365.
Under “RBNS enrichment (R)”, `UUUUUUGGCUAUAAAUUCGUACUUGAUAAGCUAUGUUAUUUCUUUGUGUAAUUUAAUAGUAGCAUUCUGGAGUAGAUUCUUUUUUUGUAUUCUGGCCUUGGAAUACUUUA` is recorded as 1.24.
`ACGUCUCAUUUAAAGCAAAUUAAGUAGGACAAGCAAGUCAGUAAAAUAGAAGUAUUAAAAAGAAUCAUCCUUUAAAUCACAGAUCUUAUUUUGAGAUUAAAAAAAAUACU`: “RBNS enrichment (R)” 0.289.
For `GGUGUGGUGGCACACGCCUGUAGUCCCAGCUACUGGGGAGGCUGAGGCAGCAUUGCUUGAACCCAGGAGGUGGAGGUUGCAGUGAGCCAAGAUCACACCACUGCACUCCA`, “RBNS enrichment (R)” read 1.21.
Under “RBNS enrichment (R)”, `CUUGGAGAUUUAUAUGGUCCUGCAUUUUGUCCUGUGCUCACAAUGUGAAGUGUCUUCUGUAUUCAAAUCAAAAAAUAAUAUAUUUAAGGUAUAUAAGUGUGAAUCUCCUA` is recorded as 4.28.
`CACACGCUUGCCCUGGUUGGUCCUGUCUUUAGGCAGAUGUGGUCAGUAUUCUGUUCCCCAGGCAUACAGCAUCAUAUAUUAAAGCCACAGCAGAAGAGGAAUGUCGCCCA`: “RBNS enrichment (R)” 0.861.

Sample 4 — target: CCNB1, cyclin fold, Cln2 fusion (human); technique: yeast growth competition, sequencing; sample: yeast; notes: strong parent motif; baseline: not given; reading: higher = stronger binding
Starting sequence: PKN2 docking peptide (human); VSAVRKLDFSDTM; partner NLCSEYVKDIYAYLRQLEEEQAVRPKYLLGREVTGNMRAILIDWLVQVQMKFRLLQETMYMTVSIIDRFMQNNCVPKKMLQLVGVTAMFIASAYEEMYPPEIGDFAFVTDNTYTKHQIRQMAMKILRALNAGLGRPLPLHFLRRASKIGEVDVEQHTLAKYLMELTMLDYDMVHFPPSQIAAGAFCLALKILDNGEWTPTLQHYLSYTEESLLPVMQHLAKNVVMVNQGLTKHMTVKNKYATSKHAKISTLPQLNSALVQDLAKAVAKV
For `VDAVRKLDFSDTM [S2D]`, “normalised enrichment score” read 3.79.
`VSAVRKPDFSDTM [L7P]`: “normalised enrichment score” 0.581.
For `VSAVRKLDFSKTM [D11K]`, “normalised enrichment score” read 1.98.
For `VSAVGKLDFSDTM [R5G]`, “normalised enrichment score” read 0.281.
For `VSAVRKLMFSDTM [D8M]`, “normalised enrichment score” read 1.24.
Under “normalised enrichment score”, `VSAVRKLDFSITM [D11I]` is recorded as 2.23.
For `VHAVRKLDFSDTM [S2H]`, “normalised enrichment score” read 3.
`VSARRKLDFSDTM [V4R]`: “normalised enrichment score” 2.57.
`VWAVRKLDFSDTM [S2W]` — result for “normalised enrichment score”: 3.42.
For `VNAVRKLDFSDTM [S2N]`, “normalised enrichment score” read 4.07.
Under “normalised enrichment score”, `VQAVRKLDFSDTM [S2Q]` is recorded as 3.52.
Under “normalised enrichment score”, `VSAVRCLDFSDTM [K6C]` is recorded as 3.2.
For `VSAVRKLDFSYTM [D11Y]`, “normalised enrichment score” read 2.17.
Under “normalised enrichment score”, `VFAVRKLDFSDTM [S2F]` is recorded as 3.41.
`VSPVRKLDFSDTM [A3P]` — result for “normalised enrichment score”: 2.55.
For `VSAVRKLDFEDTM [S10E]`, “normalised enrichment score” read 4.59.
Under “normalised enrichment score”, `VSDVRKLDFSDTM [A3D]` is recorded as 0.255.

Sample 5 — technique: Sort-seq; item: YFP reporter; sample: E. coli; notes: PhoQ-PhoP variant library; added: 10 µM Mg2+; baseline: high Mg2+ state; reading: higher = stronger signaling
Molecule: PhoQ, residues 284 288 289 292 302 303 ALASRC
It gave 7.18 for fold induction (PhoP, residues 12 14 15 18 19 QYCSL (Escherichia coli, UniProt P23836)).
It gave 5.23 for fold induction (PhoP, residues 12 14 15 18 19 STHWV (Escherichia coli, UniProt P23836)).
The fold induction was 0.939 (PhoP, residues 12 14 15 18 19 SHWTV (Escherichia coli, UniProt P23836)).

Sample 6 — technique: DHFR PCA, deep sequencing; sample: yeast; added: (+)-ABA 1.4 µM; baseline: wild-type fitted maximum; reading: higher = stronger binding
Target: ABI1, truncated, D143A, DHFR fusion (Arabidopsis thaliana)
Notes: methotrexate growth selection, single substitutions
Starting sequence: PYL1, truncated, DHFR fusion (Arabidopsis thaliana); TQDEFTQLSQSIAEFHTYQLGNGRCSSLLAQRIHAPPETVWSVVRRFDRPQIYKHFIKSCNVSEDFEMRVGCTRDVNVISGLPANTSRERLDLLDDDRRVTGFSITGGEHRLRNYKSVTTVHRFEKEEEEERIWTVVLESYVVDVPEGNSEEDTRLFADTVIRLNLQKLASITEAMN; partner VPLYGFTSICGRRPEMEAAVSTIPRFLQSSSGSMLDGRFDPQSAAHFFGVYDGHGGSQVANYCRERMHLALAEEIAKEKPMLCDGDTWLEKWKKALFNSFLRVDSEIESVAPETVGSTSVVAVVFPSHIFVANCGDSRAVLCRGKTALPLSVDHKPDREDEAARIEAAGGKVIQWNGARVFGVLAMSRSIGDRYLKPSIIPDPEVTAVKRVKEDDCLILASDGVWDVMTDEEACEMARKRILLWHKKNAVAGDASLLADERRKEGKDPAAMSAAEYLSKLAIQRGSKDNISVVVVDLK
For `V145E`, “relative binding score” read -13.4%.
For `E127I`, “relative binding score” read 51.1%.
`Q2H`: “relative binding score” 65.1%.
`N61G` — result for “relative binding score”: 22.3%.
For `P50L`, “relative binding score” read -7.58%.
Under “relative binding score”, `S27T` is recorded as 22.5%.
`R113W`: “relative binding score” 6.03%.
Under “relative binding score”, `A170T` is recorded as 14.6%.
Under “relative binding score”, `G108V` is recorded as -1.97%.
`S104Y`: “relative binding score” -9.7%.
For `Y53C`, “relative binding score” read 3.19%.
Under “relative binding score”, `Q10R` is recorded as 59.5%.
Under “relative binding score”, `L8V` is recorded as 19.4%.
`K54A`: “relative binding score” 4.86%.

Sample 7 — technique: protein binding microarray; molecule type: double-stranded DNA, one strand shown; sample: in vitro; concentration: not given; baseline: not given; reading: higher = stronger binding
Target: Histone acetyltransferase KAT6A, both winged helices, GST fusion (KAT6A, Homo sapiens, UniProt Q92794, residues 1-181)
Notes: 8-mer, flanks averaged, mean of 2 arrays, mostly near background
Residues (chain): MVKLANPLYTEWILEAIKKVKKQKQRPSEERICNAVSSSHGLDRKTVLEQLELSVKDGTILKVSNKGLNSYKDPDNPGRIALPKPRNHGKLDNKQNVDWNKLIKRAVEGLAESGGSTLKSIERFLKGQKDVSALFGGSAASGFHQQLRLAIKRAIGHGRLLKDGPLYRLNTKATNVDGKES
With `CGATTATA` the E-score was -0.0527.
`AGGATTAC` has an E-score of -0.0631.
With `CCGGAAAG` the E-score was 0.109.
For `AGTTTACA`, the E-score was 0.0239.
The E-score of `GCGGCCAA` is reported as 0.2.
For `ACGATTCT`, the E-score was 0.0527.
For `GGCATGAA`, the E-score was 0.0626.
`ATATATAG` gave an E-score of 0.00537.
`CACGCGGA` has an E-score of 0.256.
For `ACGTCTGG`, the E-score was -0.18.
For `GAGTTCGA`, the E-score was 0.00852.
For `ATAGGCAC`, the E-score was -0.092.
`CTATCCAC` gave an E-score of -0.0633.
`CTGAAAGA` gave an E-score of 0.0362.
`GTCGACGA` gave an E-score of 0.0636.
`CGCGGTAG` has an E-score of 0.299.
`CACTACGA` has an E-score of -0.101.
`AGTGCCAC` has an E-score of -0.277.
With `CTCCTACC` the E-score was -0.0326.
`CTAATAGA` has an E-score of -0.155.
`GTTGAACA` gave an E-score of 0.0063.
`ATAGTAAT` has an E-score of -0.0575.
`ACGTTCAT` has an E-score of -0.0528.

Other studies, line by line — technique: cross-linking MS
`DDX50 (Homo sapiens, UniProt Q9BQ39)`: cross-linked residues “K524 to K600” (DDX21 (Homo sapiens, UniProt Q9NR30); cell fractions; added: DSSO).
Under interaction screen, `SDHB (Homo sapiens, UniProt P21912)` is recorded as “cross-linked” (SDHA (Homo sapiens, UniProt P31040); hits only).
For `ENO1 (Homo sapiens, UniProt P06733)`, cross-linked residues read “K54 to S181” (SPINDOC (Homo sapiens, UniProt Q9BUA3); cell fractions; added: DSSO).
`PSMC5 (Homo sapiens, UniProt P62195)` — result for interaction screen: “cross-linked” (PSMD1 (Homo sapiens, UniProt Q99460); hits only).
